Published values of several laboratories.
A part holds a random share of what one study measured. Positions count from the first letter of the parent shown.

Block 1 — technique: RNA Bind-n-Seq; form: RNA; sample: in vitro; tested at: 200 nM; notes: whole 134-nt RNA, ends assumed; added: 150 mM LiCl; reference: input library; reading: higher = stronger binding; all molecules: 7-deaza-guanosine replaces G
Target: Ras GTPase-activating protein-binding protein 1, full length (G3BP1, Homo sapiens, UniProt Q13283)
Chain of UniProt Q13283 (whole entry, looked up): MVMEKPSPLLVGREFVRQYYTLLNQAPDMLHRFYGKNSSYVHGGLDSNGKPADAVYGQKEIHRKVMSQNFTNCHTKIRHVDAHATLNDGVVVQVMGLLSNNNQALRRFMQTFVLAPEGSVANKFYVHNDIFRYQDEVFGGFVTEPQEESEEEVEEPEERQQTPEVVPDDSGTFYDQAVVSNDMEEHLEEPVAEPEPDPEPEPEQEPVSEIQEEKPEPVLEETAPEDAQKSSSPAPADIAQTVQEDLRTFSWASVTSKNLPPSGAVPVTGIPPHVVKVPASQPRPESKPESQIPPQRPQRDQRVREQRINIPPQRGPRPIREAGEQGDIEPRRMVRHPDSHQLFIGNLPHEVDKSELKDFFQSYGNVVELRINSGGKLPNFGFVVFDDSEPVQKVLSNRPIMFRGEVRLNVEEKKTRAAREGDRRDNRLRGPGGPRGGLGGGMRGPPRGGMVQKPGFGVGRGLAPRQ
All sequences stand within: GGGAGUUCUACAGUCCGACGAUC … UGGAAUUCUCGGGUGUCAAGG
Oligonucleotide	log2 enrichment
AGGCCCUGGUGGCAUGCGGGGAGGAAGAGGUGGCCUCAUGGAUCGUGGUGGUCCCGGUGGAAUGUUCAGAGGUGGCCGUGGUGGAGACAG	-0.138
AAGUCCUGUGCUACACAUCGUAUGUACCGAAUCGGGUUUUUUUGGGUUUGGGUGGGAAAGUAUUAUGUUACGCCGUUCGGAUCUGCACUU	-0.566
UUGGGUUCAAUAUACGGAGAGUGCCCUGUGCCAAAGCCACGAGUUGAUCGUCCAAGAAAAGUUCCUGUGAUACAAGAGGAGAGGGCAAUG	-1.48
ACCAUGCAGGUGGGCAUCUUUGGGAUGUGGGGCAAGGGGGGGAUAGGGAGGGGGGUAACACUUUGGGAACAGGUGGUCCCAGGUCGUUUC	0.226
GUCCUGUGCUACACAUCGUAUGUACCGAAUCGGGGUUUGGGGAAAAAGGGGUUUGGGGAAAGUAUUAUGUUACGCCGUUCGGAUCUGCAC	-0.722
ACCAUGCAGGUGGGCAUCUUUGGGAAGUGGGGCAAGGGGGGGAUAGGGAGGGGGGUAACACUUUUGGAACAGGUGGUCCCAGGUCGUUUC	-0.0875
UUUGCUGUUGUUAACCAUCAAGGGACCUUGGAGAGUGGCCACUACACCAGCUUUAUCCGGCAGCACAAAGACCAGUGGUUCAAGUGUGAC	-1.34
GUCCUGUGCUACACAUCGUAUGUACCGAAUCGGGGUUUGGGGUUUUUUUGGGGAGGGGAAAGUAUUAUGUUACGCCGUUCGGAUCUGCAC	0.478

Block 2 — target: CREB5, bZIP domain (human); technique: DHFR protein complementation; sample: yeast; reference: wild-type JUN-FOS pair; reading: higher = stronger binding
Notes: single substitutions, most at no-binding floor
Starting sequence: JUN, bZIP domain (human); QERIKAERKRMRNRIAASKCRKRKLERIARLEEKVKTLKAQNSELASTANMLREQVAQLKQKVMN; partner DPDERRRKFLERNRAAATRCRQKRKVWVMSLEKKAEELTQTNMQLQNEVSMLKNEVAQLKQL
Variant	binding fitness
N50D	-0.196 natural log
A46D	-0.988 natural log
L38E	-1.4 natural log
L59F	-1.12 natural log
L38Y	-1.39 natural log
Q55Y	-0.628 natural log
N42T	-1.07 natural log
R30H	-0.145 natural log

Block 3 — technique: competition protein-binding microarray; form: double-stranded DNA, one strand shown; sample: in vitro; tested at: 2 µM; added: Pho4 competitor, 0.05 µM; reading: higher = stronger binding; all sequences stand within: … GTCTTGATTCGCTTGACGCTGCTG
Target: Centromere-binding protein 1, full length, His-tagged (CBF1, Saccharomyces cerevisiae, UniProt P17106, residues 1-351)
Chain of UniProt P17106 (whole entry, looked up): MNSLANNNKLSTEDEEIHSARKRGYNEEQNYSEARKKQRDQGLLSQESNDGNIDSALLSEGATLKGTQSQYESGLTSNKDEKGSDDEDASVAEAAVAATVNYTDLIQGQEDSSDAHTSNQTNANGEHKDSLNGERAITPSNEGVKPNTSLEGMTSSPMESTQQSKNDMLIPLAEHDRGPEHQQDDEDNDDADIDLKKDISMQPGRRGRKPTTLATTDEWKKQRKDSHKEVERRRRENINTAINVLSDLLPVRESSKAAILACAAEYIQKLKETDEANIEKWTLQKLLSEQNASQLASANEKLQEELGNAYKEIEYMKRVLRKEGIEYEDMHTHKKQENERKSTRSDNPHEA
Notes: whole 60-bp probe, lowest competitor level
Oligonucleotide	fluorescence intensity
TTTTTTGAACTTCACCACGGGCTATTTTCTTCTTAG	84 a.u.
ATGCTACTAGTAACACACATGTACAGCCTGTTGCAA	93.9 a.u.
CTTCTGTAAATTTGATTGGTGGGTGGACGCGCCCCG	99.1 a.u.
AAAGCGGTAATTTTTCACGTGCCTTCACATATCTAT	1330 a.u.
CCCGTTGAGCAGTGCCCCGTGGAACCGTAAACTATC	70.6 a.u.
TGCGCAACAACTTTTCACGTGCTATTATGTCTAGAA	1570 a.u.
AAAAAAAATTTTCGCCTCGTGGCCGGAAACACGGCC	117 a.u.
TGCGCAACAACTTGTCACGCAACTTTATGTCTAGAA	135 a.u.

Single results of other studies
SMILES	system	setting	measurement	value
CCc1n[nH]c(=O)c(-c2nc(C3CCCC3)cs2)c1CC	mouse, microsomes or S9	2 µM, 0.5 h	remaining compound	1.78%

Some of these lines once more (block 1):
Oligonucleotide	log2 enrichment
GUCCUGUGCUACACAUCGUAUGUACCGAAUCGGGGUUUGGGGAAAAAGGGGUUUGGGGAAAGUAUUAUGUUACGCCGUUCGGAUCUGCAC	-0.722
